# Measured values pooled from the literature.
# A part holds a random share of what one study measured. Positions count from the first letter of the parent shown.

# Series 1 — method: protein-binding microarray; form: double-stranded DNA, one strand shown; medium: in vitro; tested at: not given; direction: higher = stronger binding
# Target: Protein C-ets-1 (ETS1, Homo sapiens, UniProt P14921, residues 1-441, Y397A, full length assumed)
# UniProt P14921, sequence (whole entry, unmodified, looked up): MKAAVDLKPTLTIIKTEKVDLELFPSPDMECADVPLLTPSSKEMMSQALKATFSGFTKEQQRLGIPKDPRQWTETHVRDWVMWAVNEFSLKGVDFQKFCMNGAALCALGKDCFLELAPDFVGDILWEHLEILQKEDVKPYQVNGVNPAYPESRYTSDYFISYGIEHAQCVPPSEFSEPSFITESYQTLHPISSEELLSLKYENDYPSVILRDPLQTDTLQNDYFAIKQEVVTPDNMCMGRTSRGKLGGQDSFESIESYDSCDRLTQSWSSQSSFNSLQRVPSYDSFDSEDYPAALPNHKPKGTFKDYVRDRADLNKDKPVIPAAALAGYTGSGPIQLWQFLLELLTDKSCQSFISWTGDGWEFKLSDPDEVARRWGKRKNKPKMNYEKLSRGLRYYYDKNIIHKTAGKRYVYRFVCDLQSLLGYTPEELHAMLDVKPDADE
# Setting: k-mer, scored over probes, only values ≥0.25
Sequence,E-score
GGCATGCC,0.264
ACTGTTTG,0.265
CGCCCCTA,0.268
CAATTTAC,0.259
CCGCCCCA,0.35
ATCGCGCA,0.276
ACGTTGAA,0.277
AGGCGGGG,0.258

# Series 2 — method: competition protein-binding microarray; form: double-stranded DNA, one strand shown; medium: in vitro; tested at: 2 µM; added: Pho4 competitor, 0.05 µM; direction: higher = stronger binding; all sequences stand within: … GTCTTGATTCGCTTGACGCTGCTG
# Target: Centromere-binding protein 1, full length, His-tagged (CBF1, Saccharomyces cerevisiae, UniProt P17106, residues 1-351)
# UniProt P17106, sequence (whole entry, looked up): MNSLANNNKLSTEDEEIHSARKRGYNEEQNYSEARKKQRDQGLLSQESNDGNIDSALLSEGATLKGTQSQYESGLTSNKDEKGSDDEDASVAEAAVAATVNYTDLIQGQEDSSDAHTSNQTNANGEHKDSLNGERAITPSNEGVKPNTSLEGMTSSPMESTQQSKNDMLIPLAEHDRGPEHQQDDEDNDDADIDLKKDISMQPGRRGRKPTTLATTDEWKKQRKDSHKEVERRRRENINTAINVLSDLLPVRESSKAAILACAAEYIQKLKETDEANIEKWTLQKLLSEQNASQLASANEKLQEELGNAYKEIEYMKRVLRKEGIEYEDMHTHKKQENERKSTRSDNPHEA
# Setting: whole 60-bp probe, lowest competitor level
Sequence,fluorescence intensity
AAATTACTAAGTTGAGCTGTGGGTGACGCCGTATGA,68.4 a.u.
TAAACGAGAGAGATGGGCATGACAGTAGGTAGGGCA,69.1 a.u.
GTCTATAAATGCTGGCACGTGCGATCATCGCGGCGG,2210 a.u.
ACAATGTTTCGACATCACCTGTTATGAAAAAAATAT,334 a.u.
TAATAAAAATGTTACCACGTTATCAGGGTTTTCATG,237 a.u.
AAAGCGGTAATTTGATGAGTGGGTGCAGATATCTAT,75.9 a.u.
CTAACGAAGGTTTGTCACTCTACTTACAAGCCAAGT,68.2 a.u.
GGTAGTAGAACCCGTCACGTCATTACTTGATGTTGC,103 a.u.

# Single results of other studies
# OGT: UDP-N-acetylglucosamine--peptide N-acetylglucosaminyltransferase 110 kDa subunit (OGT, Homo sapiens, UniProt O15294)
# UniProt O15294, sequence (whole entry, looked up): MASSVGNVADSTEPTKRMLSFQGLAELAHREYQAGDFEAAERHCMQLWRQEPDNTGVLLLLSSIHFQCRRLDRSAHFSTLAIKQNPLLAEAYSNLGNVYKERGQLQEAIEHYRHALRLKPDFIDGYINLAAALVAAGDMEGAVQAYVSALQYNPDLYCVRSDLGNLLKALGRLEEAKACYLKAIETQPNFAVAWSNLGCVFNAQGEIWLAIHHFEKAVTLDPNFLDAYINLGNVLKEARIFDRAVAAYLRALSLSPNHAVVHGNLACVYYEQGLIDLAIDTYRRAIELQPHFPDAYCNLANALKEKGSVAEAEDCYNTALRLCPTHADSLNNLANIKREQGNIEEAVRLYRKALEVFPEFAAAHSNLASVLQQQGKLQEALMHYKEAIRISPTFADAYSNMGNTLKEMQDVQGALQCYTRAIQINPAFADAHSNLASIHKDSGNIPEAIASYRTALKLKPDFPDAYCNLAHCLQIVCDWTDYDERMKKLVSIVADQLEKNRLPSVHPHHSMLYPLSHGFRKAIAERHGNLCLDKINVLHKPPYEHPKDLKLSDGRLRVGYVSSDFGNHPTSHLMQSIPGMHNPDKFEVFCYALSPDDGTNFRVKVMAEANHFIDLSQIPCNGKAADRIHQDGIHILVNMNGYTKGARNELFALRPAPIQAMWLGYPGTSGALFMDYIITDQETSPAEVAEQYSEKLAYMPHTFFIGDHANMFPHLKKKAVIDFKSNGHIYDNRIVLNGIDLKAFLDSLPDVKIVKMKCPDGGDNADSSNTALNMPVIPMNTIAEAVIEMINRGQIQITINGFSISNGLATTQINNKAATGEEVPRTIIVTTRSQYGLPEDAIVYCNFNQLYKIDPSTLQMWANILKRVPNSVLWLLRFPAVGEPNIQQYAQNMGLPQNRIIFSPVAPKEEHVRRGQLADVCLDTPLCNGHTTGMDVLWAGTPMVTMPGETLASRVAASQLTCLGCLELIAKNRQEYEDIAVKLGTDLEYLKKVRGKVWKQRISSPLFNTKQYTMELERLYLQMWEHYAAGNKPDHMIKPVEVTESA
# P1: PafA, mature enzyme, eGFP fusion (Elizabethkingia meningoseptica, UniProt Q9KJX5); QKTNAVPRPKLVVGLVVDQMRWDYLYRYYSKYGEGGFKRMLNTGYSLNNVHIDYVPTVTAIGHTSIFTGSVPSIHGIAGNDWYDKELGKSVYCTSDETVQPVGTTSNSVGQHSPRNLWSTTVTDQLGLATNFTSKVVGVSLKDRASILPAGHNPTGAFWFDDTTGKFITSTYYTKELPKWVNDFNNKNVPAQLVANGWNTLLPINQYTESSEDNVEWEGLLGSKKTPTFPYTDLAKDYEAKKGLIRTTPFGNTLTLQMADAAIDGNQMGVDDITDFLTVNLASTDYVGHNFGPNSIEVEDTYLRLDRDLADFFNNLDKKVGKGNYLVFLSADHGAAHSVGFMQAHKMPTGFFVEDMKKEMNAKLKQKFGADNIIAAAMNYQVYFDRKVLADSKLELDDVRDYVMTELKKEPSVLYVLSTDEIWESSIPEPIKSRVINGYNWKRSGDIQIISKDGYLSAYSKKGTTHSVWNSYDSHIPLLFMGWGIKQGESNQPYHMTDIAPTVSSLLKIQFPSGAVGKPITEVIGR
Molecule,target,assay,system,setting,scale,endpoint,result
TYKNDRYLPFYPIII,OGT,"binding, phage display NGS",peptide,panning round 2,baseline: input library,minimum log2 enrichment ratio,3.75
P1 D275G,"inorganic phosphate, free oxyanion",microfluidic competitive inhibition,"in vitro, cell-free expressed","not given, derived from inhibition constants, unchanged parent 615000 nM",lower = stronger binding,phosphate dissociation constant,493 µM
MWFPPVYSIQYDLI,OGT,"binding, phage display NGS",peptide,panning round 2,baseline: input library,minimum log2 enrichment ratio,3.47
P1 G62A,"inorganic phosphate, free oxyanion",microfluidic competitive inhibition,"in vitro, cell-free expressed","not given, derived from inhibition constants, unchanged parent 615000 nM",lower = stronger binding,phosphate dissociation constant,20.8 µM
